Published values gathered from unrelated publications.
Values joined by “and” are separate records of one study, mostly repeats; a detail may differ. Numbers after ± are the reported error.
GLP1R: Glucagon-like peptide 1 receptor (GLP1R, Homo sapiens, UniProt P43220)
Sequence of UniProt Q64663 (whole entry, unmodified, looked up): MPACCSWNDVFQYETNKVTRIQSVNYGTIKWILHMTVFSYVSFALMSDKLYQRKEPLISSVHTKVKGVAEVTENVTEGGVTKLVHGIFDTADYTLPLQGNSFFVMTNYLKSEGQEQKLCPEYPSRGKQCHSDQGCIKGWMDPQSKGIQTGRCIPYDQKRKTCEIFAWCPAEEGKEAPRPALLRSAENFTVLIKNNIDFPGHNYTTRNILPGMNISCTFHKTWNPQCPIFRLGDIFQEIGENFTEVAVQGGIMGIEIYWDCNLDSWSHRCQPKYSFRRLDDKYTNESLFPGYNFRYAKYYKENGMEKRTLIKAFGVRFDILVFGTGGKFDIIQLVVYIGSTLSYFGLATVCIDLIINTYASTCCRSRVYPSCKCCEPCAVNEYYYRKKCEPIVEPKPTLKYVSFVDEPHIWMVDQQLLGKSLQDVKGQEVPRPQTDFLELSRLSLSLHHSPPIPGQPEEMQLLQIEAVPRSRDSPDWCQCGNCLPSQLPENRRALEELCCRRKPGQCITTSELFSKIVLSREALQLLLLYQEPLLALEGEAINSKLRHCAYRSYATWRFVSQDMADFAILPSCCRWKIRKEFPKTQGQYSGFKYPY
Sequence of UniProt Q9UM73 (whole entry, looked up): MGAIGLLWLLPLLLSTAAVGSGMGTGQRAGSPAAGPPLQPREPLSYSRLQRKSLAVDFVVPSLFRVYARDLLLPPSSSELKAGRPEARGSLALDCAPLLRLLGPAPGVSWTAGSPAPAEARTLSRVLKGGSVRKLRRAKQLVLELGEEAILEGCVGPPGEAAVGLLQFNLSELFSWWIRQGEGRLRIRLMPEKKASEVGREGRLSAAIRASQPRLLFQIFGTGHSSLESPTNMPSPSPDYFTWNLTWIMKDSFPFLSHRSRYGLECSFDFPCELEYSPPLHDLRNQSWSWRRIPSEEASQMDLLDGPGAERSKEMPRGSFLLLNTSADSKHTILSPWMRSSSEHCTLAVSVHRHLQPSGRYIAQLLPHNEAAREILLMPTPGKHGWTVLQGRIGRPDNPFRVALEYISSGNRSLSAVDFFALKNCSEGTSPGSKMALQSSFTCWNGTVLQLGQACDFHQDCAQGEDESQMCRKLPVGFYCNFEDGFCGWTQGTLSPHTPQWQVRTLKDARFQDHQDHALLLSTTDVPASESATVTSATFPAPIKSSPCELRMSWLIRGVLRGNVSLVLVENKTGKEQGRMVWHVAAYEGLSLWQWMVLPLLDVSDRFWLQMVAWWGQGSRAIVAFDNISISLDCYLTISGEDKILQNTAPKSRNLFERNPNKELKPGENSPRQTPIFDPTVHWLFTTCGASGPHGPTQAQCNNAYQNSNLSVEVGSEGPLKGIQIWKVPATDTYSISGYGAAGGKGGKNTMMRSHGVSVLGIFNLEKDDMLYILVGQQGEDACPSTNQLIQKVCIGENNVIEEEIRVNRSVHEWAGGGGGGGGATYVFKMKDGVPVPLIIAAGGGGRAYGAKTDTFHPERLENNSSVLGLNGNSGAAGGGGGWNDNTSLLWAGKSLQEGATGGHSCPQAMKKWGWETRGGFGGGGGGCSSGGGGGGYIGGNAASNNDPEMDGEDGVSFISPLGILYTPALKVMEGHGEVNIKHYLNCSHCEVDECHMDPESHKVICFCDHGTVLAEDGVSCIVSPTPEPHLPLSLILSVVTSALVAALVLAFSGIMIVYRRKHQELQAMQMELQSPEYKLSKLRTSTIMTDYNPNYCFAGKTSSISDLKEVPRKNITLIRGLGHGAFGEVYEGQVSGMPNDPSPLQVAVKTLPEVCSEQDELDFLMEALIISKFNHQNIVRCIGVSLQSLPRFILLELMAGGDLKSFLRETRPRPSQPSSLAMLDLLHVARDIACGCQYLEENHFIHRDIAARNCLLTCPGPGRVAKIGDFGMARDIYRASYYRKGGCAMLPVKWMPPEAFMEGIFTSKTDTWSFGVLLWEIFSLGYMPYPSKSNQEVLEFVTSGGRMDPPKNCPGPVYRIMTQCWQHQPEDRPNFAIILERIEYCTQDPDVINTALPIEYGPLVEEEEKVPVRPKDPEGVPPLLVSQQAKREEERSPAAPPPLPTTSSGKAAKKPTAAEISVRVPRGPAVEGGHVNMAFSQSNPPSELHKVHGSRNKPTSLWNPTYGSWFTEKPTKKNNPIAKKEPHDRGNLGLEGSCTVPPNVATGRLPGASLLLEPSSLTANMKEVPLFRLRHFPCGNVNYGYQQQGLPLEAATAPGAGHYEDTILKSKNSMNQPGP
Sequence of UniProt Q16774 (whole entry, unmodified, looked up): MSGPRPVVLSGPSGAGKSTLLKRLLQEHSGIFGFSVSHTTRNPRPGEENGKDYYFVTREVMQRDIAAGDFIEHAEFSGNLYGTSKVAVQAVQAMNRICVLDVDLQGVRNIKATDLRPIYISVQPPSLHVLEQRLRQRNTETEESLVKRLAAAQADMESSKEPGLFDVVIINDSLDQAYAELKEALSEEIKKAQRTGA
Sequence of UniProt Q9HC35 (whole entry, looked up): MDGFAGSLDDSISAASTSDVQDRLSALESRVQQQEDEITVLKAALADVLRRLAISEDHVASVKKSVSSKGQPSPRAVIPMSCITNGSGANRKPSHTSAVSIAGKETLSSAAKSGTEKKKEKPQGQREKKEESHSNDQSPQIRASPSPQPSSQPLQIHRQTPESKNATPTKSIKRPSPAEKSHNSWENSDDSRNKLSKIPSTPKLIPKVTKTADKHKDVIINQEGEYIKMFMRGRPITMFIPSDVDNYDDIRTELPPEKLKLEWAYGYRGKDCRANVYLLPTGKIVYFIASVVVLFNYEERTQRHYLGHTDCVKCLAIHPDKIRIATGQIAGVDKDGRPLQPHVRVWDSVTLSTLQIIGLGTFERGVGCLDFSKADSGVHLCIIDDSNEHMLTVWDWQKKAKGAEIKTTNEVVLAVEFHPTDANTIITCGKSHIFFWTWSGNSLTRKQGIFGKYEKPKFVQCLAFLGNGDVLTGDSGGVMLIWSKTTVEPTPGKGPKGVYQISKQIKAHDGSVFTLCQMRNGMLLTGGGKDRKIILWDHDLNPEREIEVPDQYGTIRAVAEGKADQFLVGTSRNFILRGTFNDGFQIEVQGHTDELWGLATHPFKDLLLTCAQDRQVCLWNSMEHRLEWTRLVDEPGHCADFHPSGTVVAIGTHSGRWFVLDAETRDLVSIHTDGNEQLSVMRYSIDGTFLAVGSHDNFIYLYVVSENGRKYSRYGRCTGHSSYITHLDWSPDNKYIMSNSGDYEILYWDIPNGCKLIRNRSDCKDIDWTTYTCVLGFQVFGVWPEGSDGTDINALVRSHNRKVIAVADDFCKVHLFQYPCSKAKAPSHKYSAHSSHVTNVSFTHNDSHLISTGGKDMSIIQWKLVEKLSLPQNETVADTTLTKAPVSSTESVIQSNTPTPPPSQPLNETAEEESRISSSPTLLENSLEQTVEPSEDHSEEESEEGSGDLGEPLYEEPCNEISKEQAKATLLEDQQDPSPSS
Sequence of UniProt P23204 (whole entry, unmodified, looked up): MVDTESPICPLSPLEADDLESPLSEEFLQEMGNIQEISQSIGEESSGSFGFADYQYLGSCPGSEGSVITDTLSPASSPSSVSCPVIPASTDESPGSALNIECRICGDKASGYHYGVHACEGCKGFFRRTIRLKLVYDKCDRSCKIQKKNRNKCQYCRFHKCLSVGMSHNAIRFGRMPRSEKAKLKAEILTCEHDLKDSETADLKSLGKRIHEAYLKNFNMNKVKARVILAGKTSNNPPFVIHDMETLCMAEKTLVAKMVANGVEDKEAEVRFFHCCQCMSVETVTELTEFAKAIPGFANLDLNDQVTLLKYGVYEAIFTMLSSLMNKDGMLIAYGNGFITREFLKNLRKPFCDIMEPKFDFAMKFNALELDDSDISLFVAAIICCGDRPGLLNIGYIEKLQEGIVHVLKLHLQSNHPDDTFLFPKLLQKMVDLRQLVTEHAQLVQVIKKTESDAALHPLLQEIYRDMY
Sequence of UniProt Q96LB1 (whole entry, looked up): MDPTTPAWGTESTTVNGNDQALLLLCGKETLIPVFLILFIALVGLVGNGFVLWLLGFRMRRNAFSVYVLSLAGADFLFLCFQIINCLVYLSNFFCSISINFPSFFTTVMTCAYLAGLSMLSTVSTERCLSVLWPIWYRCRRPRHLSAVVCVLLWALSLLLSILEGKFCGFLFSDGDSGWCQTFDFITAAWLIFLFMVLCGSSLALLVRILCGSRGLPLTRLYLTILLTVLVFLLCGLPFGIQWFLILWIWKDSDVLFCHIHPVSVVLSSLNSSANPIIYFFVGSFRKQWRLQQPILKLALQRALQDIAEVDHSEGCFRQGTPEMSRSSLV
Sequence of UniProt Q04609 (whole entry, looked up): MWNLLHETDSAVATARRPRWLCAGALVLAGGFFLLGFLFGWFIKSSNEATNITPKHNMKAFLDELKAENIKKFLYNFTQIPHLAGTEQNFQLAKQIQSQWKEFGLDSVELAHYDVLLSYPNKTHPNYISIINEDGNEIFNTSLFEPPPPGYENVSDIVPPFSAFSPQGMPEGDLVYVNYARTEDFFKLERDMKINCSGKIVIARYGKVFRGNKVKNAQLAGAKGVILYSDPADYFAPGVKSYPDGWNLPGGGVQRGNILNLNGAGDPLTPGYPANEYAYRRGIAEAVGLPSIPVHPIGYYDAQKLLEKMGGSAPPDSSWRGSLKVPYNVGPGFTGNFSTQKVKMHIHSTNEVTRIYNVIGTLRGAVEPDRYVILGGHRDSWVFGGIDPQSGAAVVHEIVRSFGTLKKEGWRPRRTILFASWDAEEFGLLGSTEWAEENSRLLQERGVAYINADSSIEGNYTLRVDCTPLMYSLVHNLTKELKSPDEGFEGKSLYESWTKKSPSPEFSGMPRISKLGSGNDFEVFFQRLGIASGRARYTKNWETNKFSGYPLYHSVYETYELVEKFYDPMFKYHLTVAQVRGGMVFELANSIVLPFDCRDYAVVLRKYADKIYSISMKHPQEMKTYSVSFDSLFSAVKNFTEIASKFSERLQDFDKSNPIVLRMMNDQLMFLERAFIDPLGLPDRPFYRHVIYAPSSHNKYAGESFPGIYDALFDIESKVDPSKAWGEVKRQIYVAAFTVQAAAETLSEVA

CC[C@H](C)[C@H](NC(=O)[C@H](Cc1ccccc1)NC(=O)[C@H](CCC(=O)O)NC(=O)[C@H](CCCNC(=N)N)NC(=O)[C@H](C)NC(=O)[C@H](C)NC(=O)[C@H](CCC(N)=O)NC(=O)[C@H](CCCCNc1c(NCCCCCN(O)C(=O)CCC(=O)NCCCCCN(O)C(=O)CCC(=O)NCCCCCN(O)C(C)=O)c(=O)c1=O)NC(=O)[C@H](CCC(=O)O)NC(=O)[C@H](CC(C)C)NC(=O)[C@H](Cc1ccc(O)cc1)NC(=O)[C@H](CO)NC(=O)[C@H](CO)NC(=O)[C@H](CCCCNc1c(NCCCCCN(O)C(=O)CCC(=O)NCCCCCN(O)C(=O)CCC(=O)NCCCCCN(O)C(C)=O)c(=O)c1=O)NC(=O)[C@H](CC(=O)O)NC(=O)[C@H](CO)NC(=O)[C@@H](NC(=O)[C@H](Cc1ccccc1)NC(=O)[C@@H](NC(=O)CNC(=O)[C@H](CCC(=O)O)NC(=O)[C@H](C)NC(=O)CCc1cnc[nH]1)[C@@H](C)O)[C@@H](C)O)C(=O)N[C@@H](C)C(=O)N[C@@H](Cc1c[nH]c2ccccc12)C(=O)N[C@@H](CC(C)C)C(=O)N[C@H](C(=O)N[C@@H](CCCNC(=N)N)C(=O)NCC(=O)N[C@@H](CCCNC(=N)N)C(=O)N[C@@H](CCCCNC(=O)COCCOCCNC(=O)COCCOCCNC(=O)CC[C@H](NC(=O)CCCCCCCCCCCCCCCCC(=O)O)C(=O)O)C(=O)O)C(C)C
fold potency loss (GLP1R; agonist, CRE luciferase reporter; BHK cells; Zr-loaded DFO conjugate, together with: 0% HSA; relative to: parent peptide): 57.9

CC[C@H](C)[C@@H]1NC(=O)[C@H](Cc2ccc(O)cc2)NC(=O)CSC[C@@H](C(N)=O)NC(=O)CNC(=O)[C@H](Cc2c[nH]cn2)NC(=O)[C@H](CCCNC(=N)N)NC(=O)[C@H](CC(N)=O)NC(=O)[C@@H]2CCCN2C(=O)[C@H](Cc2ccccc2)NC(=O)[C@H]([C@@H](C)O)NC(=O)CNC(=O)[C@H](CC(C)C)NC(=O)[C@@H]2CCCN2C(=O)[C@H]([C@@H](C)O)NC(=O)[C@H](CCCCN)NC1=O
ΔH (Vacuolar protein sorting-associated protein 29 (VPS29, Homo sapiens, UniProt Q9UBQ0); binding, ITC; 25 °C, protein alone): -13 ± 1.1 kcal/mol

[N-]=[N+]=NCC(=O)N[C@H]1[C@H]([C@H](O)[C@H](O)CO)O[C@@](O[C@H]2[C@@H](O)[C@@H](CO)O[C@@H](Oc3ccc([N+](=O)[O-])cc3)[C@@H]2O)(C(=O)O)C[C@@H]1O
kcat (Sialidase-2 (Homo sapiens, UniProt Q9Y3R4); substrate; 10 min, pH 5.0, 37 °C): 0.44 ± 0.04 s⁻¹

CC[C@H](C)[C@H](NC(=O)[C@H](Cc1ccccc1)NC(=O)[C@H](CCC(=O)O)NC(=O)[C@H](CCCNC(=N)N)NC(=O)[C@H](C)NC(=O)[C@H](C)NC(=O)[C@H](CCC(N)=O)NC(=O)[C@H](CCC(=O)O)NC(=O)[C@H](CCC(=O)O)NC(=O)[C@H](CC(C)C)NC(=O)[C@H](Cc1ccc(O)cc1)NC(=O)[C@H](CO)NC(=O)[C@H](CO)NC(=O)[C@@H](NC(=O)[C@H](CC(=O)O)NC(=O)[C@H](CO)NC(=O)[C@@H](NC(=O)[C@H](Cc1ccccc1)NC(=O)[C@@H](NC(=O)CNC(=O)[C@H](CCC(=O)O)NC(=O)[C@H](C)NC(=O)CCc1cnc[nH]1)[C@@H](C)O)[C@@H](C)O)C(C)C)C(=O)N[C@@H](C)C(=O)N[C@@H](Cc1c[nH]c2ccccc12)C(=O)N[C@@H](CC(C)C)C(=O)N[C@H](C(=O)N[C@@H](CCCNC(=N)N)C(=O)NCC(=O)N[C@@H](CCCNC(=N)N)C(=O)N[C@@H](CCCCNC(=O)COCCOCCNC(=O)COCCOCCNC(=O)CC[C@H](NC(=O)CCCCCCCCCCCCCCCCC(=O)O)C(=O)O)C(=O)NCC(=O)NCC(=O)N[C@@H](CO)C(=O)N[C@@H](CCCCNc1c(NCCCCCN(O)C(=O)CCC(=O)NCCCCCN(O)C(=O)CCC(=O)NCCCCCN(O)C(C)=O)c(=O)c1=O)C(=O)NCC(=O)NCC(=O)N[C@@H](CO)C(=O)N[C@@H](CCCCNc1c(NCCCCCN(O)C(=O)CCC(=O)NCCCCCN(O)C(=O)CCC(=O)NCCCCCN(O)C(C)=O)c(=O)c1=O)C(=O)NCC(=O)NCC(=O)N[C@@H](CO)C(=O)N[C@@H](CCCCNc1c(NCCCCCN(O)C(=O)CCC(=O)NCCCCCN(O)C(=O)CCC(=O)NCCCCCN(O)C(C)=O)c(=O)c1=O)C(=O)O)C(C)C
fold potency loss (GLP1R; agonist, CRE luciferase reporter; BHK cells; Zr-loaded DFO conjugate, together with: 0% HSA; relative to: parent peptide): 11.1

COc1cc(-c2cncc3c2CN(C)Cc2cc(N4CCNCC4)ccc2-3)cc(OC)c1OC
remaining activity (SRPK3 (Homo sapiens, UniProt Q9UPE1); kinase activity; 1 µM, human enzyme, together with: ATP 10 µM; relative to: DMSO control): 123%

CC[C@H](C)[C@H](NC(=O)[C@H](Cc1ccccc1)NC(=O)[C@H](CCC(=O)O)NC(=O)[C@H](CCCNC(=N)N)NC(=O)[C@H](C)NC(=O)[C@H](C)NC(=O)[C@H](CCC(N)=O)NC(=O)[C@H](CCCCNc1c(NCCCCCN(O)C(=O)CCC(=O)NCCCCCN(O)C(=O)CCC(=O)NCCCCCN(O)C(C)=O)c(=O)c1=O)NC(=O)[C@H](CCC(=O)O)NC(=O)[C@H](CC(C)C)NC(=O)[C@H](Cc1ccc(O)cc1)NC(=O)[C@H](CO)NC(=O)[C@H](CO)NC(=O)[C@@H](NC(=O)[C@H](CC(=O)O)NC(=O)[C@H](CO)NC(=O)[C@@H](NC(=O)[C@H](Cc1ccccc1)NC(=O)[C@@H](NC(=O)CNC(=O)[C@H](CCC(=O)O)NC(=O)[C@H](C)NC(=O)CCc1cnc[nH]1)[C@@H](C)O)[C@@H](C)O)C(C)C)C(=O)N[C@@H](C)C(=O)N[C@@H](Cc1c[nH]c2ccccc12)C(=O)N[C@@H](CC(C)C)C(=O)N[C@H](C(=O)N[C@@H](CCCNC(=N)N)C(=O)NCC(=O)N[C@@H](CCCNC(=N)N)C(=O)N[C@@H](CCCCNC(=O)COCCOCCNC(=O)COCCOCCNC(=O)CC[C@H](NC(=O)CCCCCCCCCCCCCCCCC(=O)O)C(=O)O)C(=O)NCC(=O)NCC(=O)N[C@@H](CO)C(=O)N[C@@H](CCCCNc1c(NCCCCCN(O)C(=O)CCC(=O)NCCCCCN(O)C(=O)CCC(=O)NCCCCCN(O)C(C)=O)c(=O)c1=O)C(=O)O)C(C)C
fold potency loss (GLP1R; agonist, CRE luciferase reporter; BHK cells; metal-free DFO conjugate, together with: 1% HSA; relative to: parent peptide): 4.4

CCO[C@H](COc1ccc(C(F)(F)F)cc1)CSc1ccc(OCC(=O)O)c(C)c1
Emax (Ppara (Mus musculus, UniProt P23204); receptor activation, agonist; species mouse; relative to: internal control agonist): 15%

Cc1cc(Nc2cc(N3CCN(C)CC3)nc(Sc3ccc(NC(=O)C4CC4)cc3)n2)[nH]n1
remaining activity (MELK (Homo sapiens, UniProt Q14680); kinase activity, KinaseProfiler; 0.03 µM, species human; relative to: control): 92%

Cc1cc(-c2ccnc3[nH]cc(F)c23)cc(F)c1[C@@]1(O)[C@H](C)CN(C2CCS(=O)(=O)CC2)C[C@@H]1C
probe labelling inhibition (AKT1 (Homo sapiens, UniProt P31749); ATP/ADP probe binding, KiNativ; HEK293T lysate; 0.1 µM, ATP loop peptide): 5%

[O-][S+]1CCCCS1 (centres unmarked)
target engagement (SOD1 (Homo sapiens, UniProt P00441, G94A); intact protein LC-MS; SOD1 G93A transgenic mice, whole blood; intravenous, 10 mg/kg, 72 h, mean of two mice): 15.9%

Cn1c2c(c(=O)n(C)c1=O)C(C(F)(F)F)(C(F)(F)F)N=C(c1ccc(Cl)cc1)N2
receptor activation (GLP1R; antagonist, CRE-luciferase; HEK-293T; 25 µM, 12 h, together with: agonist 100 nM): inhibited

c1ccc(C(NCc2cccnc2)(c2ccccc2)c2ccccc2)cc1
Hill coefficient (KCNQ1 (Homo sapiens, UniProt P51787, E160R/R231E); concentration-response, tail currents): 1.01

Nc1nc2c(ncn2[C@@H]2O[C@H](COP(=O)(O)O)[C@@H](O)[C@H]2O)c(=O)[nH]1
reaction rate (GUK1 (Homo sapiens, UniProt Q16774, S37P); enzyme activity, NADH-coupled; 1000 µM): 1.65 s⁻¹ and 2.35 s⁻¹ and 2.22 s⁻¹

Cc1cccc(N2CC(C(=O)O)CC2=O)c1 (centres unmarked)
fold enrichment (Transcription intermediary factor 1-alpha, PHD-bromodomain (TRIM24, Homo sapiens, UniProt O15164); binding, affinity selection mass spectrometry; relative to: other proteins in batch): 1.2

COc1cc(N2CCC(N3CCN(C)CC3)CC2)ccc1Nc1ncc(Cl)c(Nc2ccccc2P(C)(C)=O)n1
protein level (ALK tyrosine kinase receptor/Echinoderm microtubule-associated protein-like 4 (Homo sapiens, UniProt Q9HC35+Q9UM73); degrader, immunoblotting, measured: ALK tyrosine kinase receptor/Echinoderm microtubule-associated protein-like 4; Ba/F3 EML4-ALK; concentration not given, 1 h, unit not given; relative to: untreated): 1.13 and 1.09 and 0.932

O=c1nc(SCc2cc(F)cc(C(F)(F)F)c2)nc(SCc2ccc3nc(OCCN4CCOCC4)ccc3c2)[nH]1
decatenated DNA (TOP2A (Homo sapiens, UniProt P11388); decatenation; 15.6 µM, replicate 1): 85.8%

COc1cc(Nc2ncc3c(n2)-c2ccc(Cl)cc2C(c2c(F)cccc2OC)=NC3)ccc1C(=O)O
remaining activity (PRKD1; kinase activity; 1 µM): 102%

CC1(C)C(/C=C/C=C2/N(CCCc3ccccc3)c3ccc(Cl)cc3C2(C)C)=[N+](CCCc2ccccc2)c2ccc(Cl)cc21.[Br-]
Hill coefficient (CARM1 (Homo sapiens, UniProt Q86X55); inhibitor, filter binding; together with: histone H3.3 substrate): 8.59

CO[C@@H]1O[C@H](CO)[C@@H](O)[C@H](O)[C@H]1O
ΔTm (uncharacterized protein (Pelagibacter ubique, UniProt Q4FMK2); differential scanning fluorimetry; Candidatus Pelagibacter ubique; concentration not given; higher = stronger binding): 3.44 °C

Nc1nc2c(ncn2[C@H]2C[C@H](O)[C@@H](COP(=O)(O)OP(=O)(O)OP(=O)(O)O)O2)c(=O)[nH]1
apparent Km (nrdE, with NrdF (Bacillus subtilis, UniProt P50620); ADP reduction, allosteric activator; 37 °C, together with: Mn(III)2-Y• NrdF): 1.7 ± 0.2 µM

O=C(COP(=O)(O)O)[C@@H](O)[C@H](O)[C@H](O)COP(=O)(O)O
thermal stability ratio (Importin subunit alpha-1 (Homo sapiens, UniProt P52292); thermal proteome profiling, measured: KPNA2; HepG2 cell lysate; concentration not given, 57 over 37 °C, mean; relative to: compound over control): 0.636

Nc1ncnc2c1ncn2[C@@H]1O[C@H](COP(=O)(O)OP(=O)(O)OP(=O)(O)O)[C@@H](O)[C@H]1O
normalized current (P2X purinoceptor 7 (P2rx7, Rattus norvegicus, UniProt Q64663, Q143A); ion current, agonist, two-electrode voltage clamp; Xenopus laevis oocytes; 6 µM; relative to: highest concentration response): 0.00873 and 0

CCCCCCCCCCCC(=O)SCCNC(=O)CCNC(=O)[C@H](O)C(C)(C)COP(=O)(O)OP(=O)(O)OC[C@H]1O[C@@H](n2cnc3c(N)ncnc32)[C@H](O)[C@@H]1OP(=O)(O)O
secondary structure change (Ppara (Mus musculus, UniProt P23204, F272I); far-UV circular dichroism; concentration not given): no effect

CCN1CCC[C@H]1CNC(=O)c1c(O)c(Cl)cc(Cl)c1OC
log2 fold change (MRGPRX2 (Homo sapiens, UniProt Q96LB1); β-arrestin recruitment, TANGO luminescence; concentration not given; relative to: basal luminescence): -0.231

NC(N)=NN=C(C=Cc1ccc([N+](=O)[O-])o1)C=Cc1ccc([N+](=O)[O-])o1
luminescence signal reduction (NanoBiT HiBiT/LgBiT luciferase; inhibitor, HiBiT luminescence counterscreen; conditioned medium only; 5 µM, 24 h; relative to: vehicle): -7.72%

CC1(C)CN(CCCCC(=O)N[C@H](Cc2ccccc2)C(=O)N[C@H](Cc2ccccc2)C(=O)N[C@@H](CCCCNC(=O)CCCCCCC(=O)NCCCC[C@H](NC(=O)N[C@@H](CCC(=O)O)C(=O)O)C(=O)O)C(=O)O)CC[N]2CC(C)(C)[S][Tc]2(=[O])[S]1 (some centres unmarked) [technetium-99m labelled]
Bmax (FOLH1 (Homo sapiens, UniProt Q04609); radioligand, saturation binding; LNCaP; 1 h, 37 °C, together with: [99mTc]TcO-6): 4.7 ± 0.2 pmol/mg

Repeated from above:
[O-][S+]1CCCCS1 (centres unmarked)
target engagement (SOD1 (Homo sapiens, UniProt P00441, G94A); intact protein LC-MS; SOD1 G93A transgenic mice, whole blood; intravenous, 10 mg/kg, 72 h, mean of two mice): 15.9%

CC1(C)CN(CCCCC(=O)N[C@H](Cc2ccccc2)C(=O)N[C@H](Cc2ccccc2)C(=O)N[C@@H](CCCCNC(=O)CCCCCCC(=O)NCCCC[C@H](NC(=O)N[C@@H](CCC(=O)O)C(=O)O)C(=O)O)C(=O)O)CC[N]2CC(C)(C)[S][Tc]2(=[O])[S]1 (some centres unmarked) [technetium-99m labelled]
Bmax (FOLH1 (Homo sapiens, UniProt Q04609); radioligand, saturation binding; LNCaP; 1 h, 37 °C, together with: [99mTc]TcO-6): 4.7 ± 0.2 pmol/mg

Cc1cc(-c2ccnc3[nH]cc(F)c23)cc(F)c1[C@@]1(O)[C@H](C)CN(C2CCS(=O)(=O)CC2)C[C@@H]1C
probe labelling inhibition (AKT1 (Homo sapiens, UniProt P31749); ATP/ADP probe binding, KiNativ; HEK293T lysate; 0.1 µM, ATP loop peptide): 5%

Nc1nc2c(ncn2[C@@H]2O[C@H](COP(=O)(O)O)[C@@H](O)[C@H]2O)c(=O)[nH]1
reaction rate (GUK1 (Homo sapiens, UniProt Q16774, S37P); enzyme activity, NADH-coupled; 1000 µM): 1.65 s⁻¹ and 2.35 s⁻¹ and 2.22 s⁻¹
